Published values collected from several papers.
Values joined by “and” are separate records of one study, mostly repeats; a detail may differ. ± gives the spread as reported. Converted amounts (≈) assume the structure as drawn.
Organism: Escherichia coli

Cc1onc(-c2ccccc2)c1C(=O)N[C@@H]1C(=O)N2[C@@H]1SC(C)(C)[C@@H]2C(=O)O — inhibition zone diameter (CGMCC 1.9; concentration not given, 18 h, 37 °C): 0 mm
N=C(N)c1ccc(OCCCOc2ccc(C(=N)N)cc2)cc1 — MIC in combination (BW25113; concentration not given, lowest-FICI combination, with: erythromycin): 50 µg/mL
C[C@H](N)C(=O)O — EC50 (chemotactic response, attractant, FRET): 75.5 µM
OC[C@H]1O[C@@H]2O[C@H]3[C@H](O)[C@@H](O)[C@@H](O[C@H]4[C@H](O)[C@@H](O)[C@@H](O[C@H]5[C@H](O)[C@@H](O)[C@@H](O[C@H]6[C@H](O)[C@@H](O)[C@@H](O[C@H]7[C@H](O)[C@@H](O)[C@@H](O[C@H]8[C@H](O)[C@@H](O)[C@@H](O[C@H]1[C@H](O)[C@H]2O)O[C@@H]8CO)O[C@@H]7CO)O[C@@H]6CO)O[C@@H]5CO)O[C@@H]4CO)O[C@@H]3CO — inhibition (LuxR reporter, antagonist; DH5α sensor strain; 10 µM, with: OHHL 200 nM): -5 ± 1%
N=C(N)c1ccc(OCc2ccc(COc3ccc(C(=N)N)cc3)cc2)cc1 — MIC in combination (BW25113; concentration not given, lowest-FICI combination, with: rifampicin): 25 µg/mL
[H]/N=C(/N)N[C@H]1[C@H](O)[C@@H](O)[C@H](O[C@@H]2O[C@@H](C)[C@](O)(C=O)[C@H]2O[C@@H]2O[C@@H](CO)[C@H](O)[C@@H](O)[C@@H]2NC)[C@@H](N/C(N)=N\[H])[C@@H]1O — inhibition zone diameter (CGMCC 1.9; concentration not given, 18 h, 37 °C): 0 mm
N=C(N)c1ccc(/N=N/Nc2ccc(C(=N)N)cc2)cc1 — MIC90 (bacterial growth, inhibitor, OD600; M1/5): 82.8 µM (≈ 23.3 µg/mL)
CN(C)c1ccc(O)c2c1C[C@H]1C[C@H]3[C@H](N(C)C)C(O)=C(C(N)=O)C(=O)[C@@]3(O)C(O)=C1C2=O — MIC fold shift (ATCC 25922; reference: 5% CO2 over ambient air): 1
Cc1ccc(C[C@H](NC(=O)[C@@H](Cc2ccccc2)NC(=O)[C@@H](Cc2c[nH]c3ccccc23)NC(=O)[C@@H](N)CCCN)C(=O)N[C@H](Cc2ccccc2)C(=O)N[C@H](CCCNC(=N)N)C(N)=O)cc1 — IC50 (bacterial growth; ATCC 35218): 4.86 µg/mL (≈ 5.23 µM)
CC(C)Oc1c(NC(=O)c2ccc(NC(=O)[C@H](CC(N)=O)NC(=O)c3ccc(NC(=O)c4ccc(C#N)cc4)cc3)cc2)ccc(C(=O)Nc2ccc(C(=O)O)cc2)c1O — bacterial burden reduction (ATCC 25922, neutropenic mouse thigh infection; intravenous, 40 mg/kg/day, 10 mg/kg/dose; reference: vehicle): 5.32 log10 CFU/g
CN[C@H](CC(C)C)C(=O)N[C@H]1C(=O)N[C@@H](CC(N)=O)C(=O)N[C@H]2C(=O)N[C@H]3C(=O)N[C@H](C(=O)N[C@H](C(=O)O)c4cc(O)cc(O)c4-c4cc3ccc4O)[C@H](O)c3ccc(c(Cl)c3)Oc3cc2cc(c3O[C@@H]2O[C@H](CO)[C@@H](O)[C@H](O)[C@H]2O[C@H]2C[C@](C)(N)[C@H](O)[C@H](C)O2)Oc2ccc(cc2Cl)[C@H]1O — MBC (ATCC BAA-1025): 125 µg/mL (≈ 86.3 µM)
N=C(N)c1ccc(OCCS(=O)(=O)CCOc2ccc(C(=N)N)cc2)cc1 — MIC in combination (BW25113; concentration not given, lowest-FICI combination, with: rifampicin): 3.13 µg/mL
C#CCCCC(=O)NCC — inhibition (LuxR reporter, antagonist; DH5α sensor strain; 4 µM, with: OHHL 200 nM): 5 ± 14%
N[C@@H](CS)C(=O)O — EC50 (chemotaxis pathway, FRET; MG1655): 4.6 µM
N=C(N)c1ccc(OCCCCCCCOc2ccc(C(=N)N)cc2)cc1 — MIC in combination (BW25113; concentration not given, lowest-FICI combination, with: erythromycin): 12.5 µg/mL
O=C1C(Cl)=C(n2ccnc2)C(=O)c2ccccc21 — zone of inhibition (MTCC 405; 10 µg/mL): 11 mm
COC(=O)[C@H]1[C@H]2C[C@@H]3c4[nH]c5cc(OC)ccc5c4CCN3C[C@H]2C[C@@H](OC(=O)c2cc(OC)c(OC)c(OC)c2)[C@@H]1OC — FIC index (checkerboard; tetracycline-resistant; 64 µM, with: tetracycline): 1
CN[C@H](CC(C)C)C(=O)N[C@H]1C(=O)N[C@@H](CC(N)=O)C(=O)N[C@H]2C(=O)N[C@H]3C(=O)N[C@H](C(=O)N[C@H](C(=O)O)c4cc(O)cc(O)c4-c4cc3ccc4O)[C@H](O)c3ccc(c(Cl)c3)Oc3cc2cc(c3O[C@@H]2O[C@H](CO)[C@@H](O)[C@H](O)[C@H]2O[C@H]2C[C@](C)(N)[C@H](O)[C@H](C)O2)Oc2ccc(cc2Cl)[C@H]1O — inhibition zone diameter (ATCC 25922; 64 µg per disk): 9 mm
N#Cc1c(-c2ccc(OCc3ccccc3)cc2)c(C(N)=O)c(N)n(N)c1=O — viable count (time-kill; 1 x MIC, 120 min): 0 log CFU/mL
N[C@@H](CCC(=O)O)C(=O)O — EC50 (chemotactic response, attractant, FRET): 57.7 µM
CC(=O)Oc1ccc(-c2c(C(N)=O)c(N)n(N)c(=O)c2C#N)cc1 — viable count (time-kill; 1 x MIC, 180 min, 3 h): 0 CFU
CCN1CCN(c2cc3c(cc2F)c(=O)c(C(=O)O)cn3C2CC2)CC1 — inhibition zone diameter (CGMCC 1.9; concentration not given, 18 h, 37 °C): 14.5 mm
N=C(N)c1ccc(OCCSCCOc2ccc(C(=N)N)cc2)cc1 — MIC in combination (BW25113; concentration not given, lowest-FICI combination, with: rifampicin): 100 µg/mL
CCCCCCCNC1=C(n2cncn2)C(=O)c2ccccc2C1=O — zone of inhibition (MTCC 405; 10 µg/mL): 11 mm
N=C(N)c1ccc(OCCCCCCCCOc2ccc(C(=N)N)cc2)cc1 — MIC in combination (BW25113; concentration not given, lowest-FICI combination, with: rifampicin): 3.13 µg/mL
CC1(C)S[C@@H]2[C@H](NC(=O)[C@H](N)c3ccc(O)cc3)C(=O)N2[C@H]1C(=O)O — inhibition zone diameter (CGMCC 1.9; concentration not given, 18 h, 37 °C): 0 mm
C[C@@H](O)[C@H]1C(=O)N2C(C(=O)O)=C(SCCN=CN)C[C@H]12 — bacterial load (2904, female ICR mice, peritonitis, lung; dose not given, 168 h): 3.79 log CFU and 3.86 log CFU and 4.44 log CFU and 4.25 log CFU and 5.12 log CFU and 4.18 log CFU
COC[C@H]1O[C@@H]2O[C@@H]3[C@@H](OC)[C@@H](OC)[C@@H](O[C@@H]4[C@@H](OC)[C@@H](OC)[C@@H](O[C@@H]5[C@@H](OC)[C@@H](OC)[C@@H](O[C@@H]6[C@@H](OC)[C@@H](OC)[C@@H](O[C@@H]7[C@@H](OC)[C@@H](OC)[C@@H](O[C@@H]1[C@@H](OC)[C@H]2OC)O[C@@H]7COC)O[C@@H]6COC)O[C@@H]5COC)O[C@@H]4COC)O[C@@H]3COC — bioluminescence (LuxR reporter, agonist; DH5α sensor strain; 40 µM): 896 ± 46 RLU
N[C@@H](CC(=O)O)C(=O)O — EC50 (chemotactic response, attractant, FRET): 0.5 µM
N=C(N)c1cccc(OCc2ccccc2COc2cccc(C(=N)N)c2)c1 — MIC in combination (BW25113; concentration not given, lowest-FICI combination, with: erythromycin): 100 µg/mL
CC(=O)O[C@H]1C[C@@]2(C)[C@@H](C[C@@H](O)[C@H]3[C@@]4(C)CC[C@@H](O)[C@@H](C)[C@@H]4CC[C@@]32C)/C1=C(\CCC=C(C)C)C(=O)O — MIC (ATCC 25922): 640 µM
N=C(N)c1ccc(OCCC(CCOc2ccc(C(=N)N)cc2)c2ccccc2)cc1 (centres unmarked) — FICI (checkerboard; mcr-1 polymyxin-resistant; unit not given, with: rifampicin; lower = stronger synergy): ≤ 0.063
CNC(C)C1CCC(N)C(OC2C(N)CC(N)C(OC3OCC(C)(O)C(NC)C3O)C2O)O1 (centres unmarked) — MIC fold shift (ATCC 25922; reference: 5% CO2 over ambient air): 4
Cc1c(CN(C)C(=O)/C=C/c2cnc3c(c2)CC(NC(=O)OC(C)(C)C)C(=O)N3)oc2ccccc12 (centres unmarked) — MIC (broth microdilution; AR-0162): > 32 µg/mL
Nc1ccc2c(c1)B(O)OC2 — post-antibiotic effect (ATCC 25922; 1xMIC, 1 h): 0.52 ± 0.11 h
